Results of several laboratories.
Several values in a cell are separate wells, animals, samples, runs or records. ± marks the error that the study gave.
B1: LLGL2 13-978 (Homo sapiens, UniProt Q6P1M3); Hilyte488 N-terminal label; chain RERLKRDLFQFNKTVEHGFPHQPSALGYSPSLRILAIGTRSGAIKLYGAPGVEFMGLHQENNAVTQIHLLPGQCQLVTLLDDNSLHLWSLKVKGGASELQEDESFTLRGPPGAAPSATQITVVLPHSSCELLYLGTESGNVFVVQLPAFRALEDRTISSDAVLQRLPEEARHRRVFEMVEALQEHPRDPNQILIGYSRGLVVIWDLQGSRVLYHFLSSQQLENIWWQRDGRLLVSCHSDGSYCQWPVSSEAQQPEPLRSLVPYGPFPCKAITRILWLTTRQGLPFTIFQGGMPRASYGDRHCISVIHDGQQTAFDFTSRVIGFTVLTEADPAATFDDPYALVVLAEEELVVIDLQTAGWPPVQLPYLASLHCSAITCSHHVSNIPLKLWERIIAAGSRQNAHFSTMEWPIDGGTSLTPAPPQRDLLLTGHEDGTVRFWDASGVCLRLLYKLSTVRVFLTDTDPNENFSAQGEDEWPPLRKVGSFDPYSDDPRLGIQKIFLCKYSGYLAVAGTAGQVLVLELNDEAAEQAVEQVEADLLQDQEGYRWKGHERLAARSGPVRFEPGFQPFVLVQCQPPAVVTSLALHSEWRLVAFGTSHGFGLFDHQQRRQVFVKCTLHPSDQLALEGPLSRVKSLKKSLRQSFRRMRRSRVSSRKRHPAGPPGEAQEGSAKAERPGLQNMELAPVQRKIEARSAEDSFTGFVRTLYFADTYLKDSSRHCPSLWAGTNGGTIYAFSLRVPPAERRMDEPVRAEQAKEIQLMHRAPVVGILVLDGHSVPLPEPLEVAHDLSKSPDMQGSHQLLVVSEEQFKVFTLPKVSAKLKLKLTALEGSRVRRVSVAHFGSRRAEDYGEHHLAVLTNLGDIQVVSLPLLKPQVRYSCIRREDVSGIASCVFTKYGQGFYLISPSEFERFSLSTKWLVEPRCLVDSAETKNHRPGNGAGPKKAPSRARNSGTQSDGEEKQPGLVMER
B2: SSC3 substrate-binding domain 415-644 (Saccharomyces cerevisiae); chain TPLSLGIETLGGVFTKLIPRNSTIPNKKSQIFSTAASGQTSVEVKVFQGERELVKDNKLIGNFTLAGIPPAPKGTPQIEVTFDIDANGIINVSAKDLASHKDSSITVAGASGLSDTEIDRMVNEAERYKNQDRARRNAIETANKADQLANDTENSIKEFEGKLDKTDSQRLKDQISSLRELVSRSQAGDEVNDDDVGTKIDNLRTSSMKLFEQLYKNSDNPETKNGRENK
B3: TEPSIN R226A/E227A/D230A/E233A/R234A/E236A (Homo sapiens, UniProt Q96N21); chain MAAAPPLRDRLSFLHRLPILLKGTSDDDVPCPGYLFEEIAKISHESPGSSQCLLEYLLSRLHSSSGHGKLKVLKILLYLCSHGSSFFLLILKRNSAFIQEAAAFAGPPDPLHGNSLYQKVRAAAQDLGSTLFSDTVLPLAPSQPLGTPPATGMGSQARPHSTLQGFGYSKEHGRTAVRHQPGQAGGGWDELDSGPSSQNSSQNSDLSRVSDSGSHSGSDSHSGASAAPGALAAAVAVVALSDCQQELSLVRTVTRGPRAFLSREEAQHFIKACGLLNCEAVLQLLTCHLRGTSECTQLRALCAIASLGSSDLLPQEHILLRTRPWLQELSMGSPGPVTNKATKILRHFEASCGQLSPARGTSAEPGPTAALPGPSDLLTDAVPLPGSQVFLQPLSSTPVSSRSPAPSSGMPSSPVPTPPPDASPIPAPGDPSEAEARLAESRRWRPERIPGGTDSPKRGPSSCAWSRDSLFAGMELVACPRLVGAGAAAGESCPDAPRAPQTSSQRTAAKEPPGSEPSAFAFLNA
B4: CFH 1108-1231 S1191L/V1197A (Homo sapiens, UniProt P08603); sequence looked up; chain KCGPPPPIDNGDITSFPLSVYAPASSVEYQCQNLYQLEGNKRITCRNGQWSEPPKCLHPCVISREIMENYNIALRWTAKQKLYLRTGESAEFVCKRGYRLSSRSHTLRTTCWDGKLEYPTCAKR
B5: PUX4 (Arabidopsis thaliana, UniProt Q8RWU7); chain MSSKDKKPSKPSSSRGGIRTLSDLNRRSGPDSDSDSDGPQEYYTGGEKSGMLVQDPSKKDDVDEIFNQARQLGAVEGPLEPPPSSRSFTGTGRLLSGENVPTGNQQPEPVVHNIVFWSNGFTIDDGPLRKLDDPENASFLESIRKSECPKELEPADRRAPVHVNLMRKEEKCPERQKRRVSFQGVGRTLGGSNEGSGSSSPVAPDSAPIPIQTEPAPSQSLVIDETVPTTSIQLRLADGTRLVAKFNHHHTVNDIRGFIDSSRPGASLNYQLQTMGFPPKPLTDLTQTIEEAGLANSVVLQKF
Sequence of UniProt Q64663 (whole entry, unmodified, looked up): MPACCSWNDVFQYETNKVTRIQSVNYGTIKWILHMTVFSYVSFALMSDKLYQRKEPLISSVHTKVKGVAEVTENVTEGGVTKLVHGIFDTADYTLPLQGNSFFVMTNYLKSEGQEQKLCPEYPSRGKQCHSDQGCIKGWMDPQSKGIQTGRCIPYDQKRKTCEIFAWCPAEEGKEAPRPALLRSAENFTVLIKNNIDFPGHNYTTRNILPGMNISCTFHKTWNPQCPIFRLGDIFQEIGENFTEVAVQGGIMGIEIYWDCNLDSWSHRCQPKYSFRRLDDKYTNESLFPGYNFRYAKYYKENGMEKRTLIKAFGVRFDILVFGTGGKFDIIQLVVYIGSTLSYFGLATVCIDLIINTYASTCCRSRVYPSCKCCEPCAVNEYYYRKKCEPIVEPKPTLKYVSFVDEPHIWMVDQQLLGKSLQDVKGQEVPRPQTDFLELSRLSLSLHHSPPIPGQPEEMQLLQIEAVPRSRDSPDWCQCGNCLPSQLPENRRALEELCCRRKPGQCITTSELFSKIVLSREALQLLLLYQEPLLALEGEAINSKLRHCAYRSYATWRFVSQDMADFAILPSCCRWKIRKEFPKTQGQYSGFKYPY
Sequence of UniProt P48067 (whole entry, looked up): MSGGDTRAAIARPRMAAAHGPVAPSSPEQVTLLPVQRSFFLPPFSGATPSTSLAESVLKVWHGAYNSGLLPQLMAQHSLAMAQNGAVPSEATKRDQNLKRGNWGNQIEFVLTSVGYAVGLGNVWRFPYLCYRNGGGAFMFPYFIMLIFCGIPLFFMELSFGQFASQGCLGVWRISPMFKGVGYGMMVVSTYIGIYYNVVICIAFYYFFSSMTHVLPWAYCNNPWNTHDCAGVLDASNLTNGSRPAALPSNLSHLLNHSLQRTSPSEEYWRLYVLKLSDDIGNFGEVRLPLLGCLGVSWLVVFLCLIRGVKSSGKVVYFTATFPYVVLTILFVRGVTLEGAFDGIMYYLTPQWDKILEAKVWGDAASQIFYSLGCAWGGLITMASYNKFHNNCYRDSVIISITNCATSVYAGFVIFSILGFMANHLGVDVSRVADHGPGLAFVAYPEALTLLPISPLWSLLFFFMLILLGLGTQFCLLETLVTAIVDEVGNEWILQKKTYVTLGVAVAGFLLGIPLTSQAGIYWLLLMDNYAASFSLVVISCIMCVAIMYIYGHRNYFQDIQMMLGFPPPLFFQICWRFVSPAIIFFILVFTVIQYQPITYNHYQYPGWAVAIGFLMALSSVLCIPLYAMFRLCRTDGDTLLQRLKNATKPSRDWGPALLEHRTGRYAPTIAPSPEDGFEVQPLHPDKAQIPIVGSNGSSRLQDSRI
Sequence of UniProt Q9H160 (whole entry, looked up): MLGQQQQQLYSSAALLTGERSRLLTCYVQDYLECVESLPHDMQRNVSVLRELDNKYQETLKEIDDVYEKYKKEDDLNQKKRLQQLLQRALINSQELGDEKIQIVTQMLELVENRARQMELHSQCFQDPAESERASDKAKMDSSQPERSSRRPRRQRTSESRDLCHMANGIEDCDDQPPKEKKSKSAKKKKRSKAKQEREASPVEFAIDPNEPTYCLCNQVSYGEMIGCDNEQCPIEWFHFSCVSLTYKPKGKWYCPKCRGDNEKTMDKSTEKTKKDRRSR
Sequence of UniProt P54609 (whole entry, looked up): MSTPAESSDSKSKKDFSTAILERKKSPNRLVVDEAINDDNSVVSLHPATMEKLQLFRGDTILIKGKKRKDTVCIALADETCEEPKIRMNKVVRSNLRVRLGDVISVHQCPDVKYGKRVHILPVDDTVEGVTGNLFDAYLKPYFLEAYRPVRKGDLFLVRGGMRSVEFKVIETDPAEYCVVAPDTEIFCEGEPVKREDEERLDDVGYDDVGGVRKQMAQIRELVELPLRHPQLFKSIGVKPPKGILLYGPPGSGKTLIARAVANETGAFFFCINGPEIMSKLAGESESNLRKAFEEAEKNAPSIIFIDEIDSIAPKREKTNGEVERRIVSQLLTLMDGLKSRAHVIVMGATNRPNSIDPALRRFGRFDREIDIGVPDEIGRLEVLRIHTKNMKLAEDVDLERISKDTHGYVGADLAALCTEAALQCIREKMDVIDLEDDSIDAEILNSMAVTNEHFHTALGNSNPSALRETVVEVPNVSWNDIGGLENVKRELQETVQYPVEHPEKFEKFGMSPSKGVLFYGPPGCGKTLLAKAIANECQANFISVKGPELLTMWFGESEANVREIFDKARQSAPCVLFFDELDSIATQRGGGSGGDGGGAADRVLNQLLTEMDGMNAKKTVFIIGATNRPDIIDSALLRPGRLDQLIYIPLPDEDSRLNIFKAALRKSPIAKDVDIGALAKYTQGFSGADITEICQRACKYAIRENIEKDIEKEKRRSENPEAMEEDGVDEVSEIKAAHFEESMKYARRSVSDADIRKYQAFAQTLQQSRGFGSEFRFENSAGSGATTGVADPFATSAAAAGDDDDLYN
Sequence of UniProt P26039 (whole entry, looked up): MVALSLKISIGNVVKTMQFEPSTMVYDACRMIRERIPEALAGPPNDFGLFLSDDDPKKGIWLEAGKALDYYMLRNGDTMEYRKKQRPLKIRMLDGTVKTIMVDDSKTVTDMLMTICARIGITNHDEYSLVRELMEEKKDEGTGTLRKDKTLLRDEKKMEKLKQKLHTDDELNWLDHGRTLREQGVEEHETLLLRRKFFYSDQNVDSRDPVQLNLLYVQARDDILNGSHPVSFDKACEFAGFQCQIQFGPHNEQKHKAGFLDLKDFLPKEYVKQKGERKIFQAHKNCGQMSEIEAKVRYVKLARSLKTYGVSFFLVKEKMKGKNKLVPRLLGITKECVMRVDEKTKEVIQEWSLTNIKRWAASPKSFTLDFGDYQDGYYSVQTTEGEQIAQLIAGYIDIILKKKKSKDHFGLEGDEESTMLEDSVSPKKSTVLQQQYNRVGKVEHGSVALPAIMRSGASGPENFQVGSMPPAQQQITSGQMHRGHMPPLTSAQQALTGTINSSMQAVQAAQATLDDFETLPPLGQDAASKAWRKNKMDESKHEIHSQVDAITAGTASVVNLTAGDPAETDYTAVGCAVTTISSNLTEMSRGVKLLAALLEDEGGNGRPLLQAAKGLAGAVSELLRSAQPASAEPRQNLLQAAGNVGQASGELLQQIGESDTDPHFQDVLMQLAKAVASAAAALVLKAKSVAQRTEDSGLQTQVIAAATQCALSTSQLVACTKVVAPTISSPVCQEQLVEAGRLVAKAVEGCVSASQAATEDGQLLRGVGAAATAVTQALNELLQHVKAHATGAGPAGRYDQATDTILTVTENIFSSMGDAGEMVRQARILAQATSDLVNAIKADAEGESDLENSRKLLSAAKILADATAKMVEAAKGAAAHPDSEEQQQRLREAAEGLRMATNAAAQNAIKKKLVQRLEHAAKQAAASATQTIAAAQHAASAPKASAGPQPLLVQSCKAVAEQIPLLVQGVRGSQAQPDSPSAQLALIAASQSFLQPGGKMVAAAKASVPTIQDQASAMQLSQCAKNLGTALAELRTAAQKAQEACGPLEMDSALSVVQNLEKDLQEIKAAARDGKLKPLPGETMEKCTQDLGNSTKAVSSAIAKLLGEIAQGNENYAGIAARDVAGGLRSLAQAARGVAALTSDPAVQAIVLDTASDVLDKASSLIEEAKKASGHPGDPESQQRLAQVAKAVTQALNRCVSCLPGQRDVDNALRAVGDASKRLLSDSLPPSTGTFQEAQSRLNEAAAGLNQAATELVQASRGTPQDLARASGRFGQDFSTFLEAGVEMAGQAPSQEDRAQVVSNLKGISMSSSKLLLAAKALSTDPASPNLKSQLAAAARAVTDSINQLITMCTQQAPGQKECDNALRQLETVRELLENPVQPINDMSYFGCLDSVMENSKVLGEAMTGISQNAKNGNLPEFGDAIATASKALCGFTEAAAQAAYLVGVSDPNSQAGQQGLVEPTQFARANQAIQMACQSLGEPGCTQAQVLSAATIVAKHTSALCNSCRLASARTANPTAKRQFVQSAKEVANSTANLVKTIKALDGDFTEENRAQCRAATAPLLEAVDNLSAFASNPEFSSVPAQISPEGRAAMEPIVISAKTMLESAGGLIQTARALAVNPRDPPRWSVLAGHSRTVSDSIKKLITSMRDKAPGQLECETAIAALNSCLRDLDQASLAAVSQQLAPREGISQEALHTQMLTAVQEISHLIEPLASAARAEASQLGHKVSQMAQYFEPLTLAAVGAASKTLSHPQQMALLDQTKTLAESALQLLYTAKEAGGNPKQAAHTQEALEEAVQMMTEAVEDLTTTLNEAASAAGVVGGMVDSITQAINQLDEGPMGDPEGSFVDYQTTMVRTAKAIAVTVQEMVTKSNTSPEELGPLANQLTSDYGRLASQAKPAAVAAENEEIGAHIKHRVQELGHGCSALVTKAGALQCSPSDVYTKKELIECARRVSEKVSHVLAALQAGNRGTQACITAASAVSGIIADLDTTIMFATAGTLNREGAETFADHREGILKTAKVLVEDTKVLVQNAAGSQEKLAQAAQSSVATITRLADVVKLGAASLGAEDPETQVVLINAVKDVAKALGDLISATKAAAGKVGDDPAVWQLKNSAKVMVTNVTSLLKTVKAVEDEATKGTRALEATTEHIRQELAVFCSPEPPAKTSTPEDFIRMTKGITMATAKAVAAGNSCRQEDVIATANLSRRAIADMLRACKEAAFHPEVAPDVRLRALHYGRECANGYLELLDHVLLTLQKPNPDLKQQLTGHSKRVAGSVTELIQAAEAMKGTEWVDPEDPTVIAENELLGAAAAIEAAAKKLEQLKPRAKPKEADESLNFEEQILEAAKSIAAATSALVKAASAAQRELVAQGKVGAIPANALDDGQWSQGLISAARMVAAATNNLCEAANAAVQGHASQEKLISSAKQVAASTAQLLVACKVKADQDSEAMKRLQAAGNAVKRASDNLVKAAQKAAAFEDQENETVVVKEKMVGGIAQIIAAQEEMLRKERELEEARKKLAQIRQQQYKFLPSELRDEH

| Molecule | target or system | assay | test system | setting | how to read | quantity | value |
| --- | --- | --- | --- | --- | --- | --- | --- |
| ACVLMLRRCRILGWCCSG (MP5.6; two disulfides) | chymotrypsin alpha (Bos taurus, UniProt P00766) | flow cytometry | peptide |  |  | Kd | 0.0015 µM |
| SCN2A fragment R1917A (Homo sapiens) (sequence not shown) | CALM1 (Homo sapiens, UniProt P0DP23) | fluorescence titration |  | pH 7.4, 22 °C, together with: calcium |  | Kd | 0.0819 µM |
| SPTBN2 actin-binding domain F160C (sequence not shown) | ACTA1 F-actin (Oryctolagus cuniculus, UniProt P68135) | co-sedimentation |  |  |  | Kd | < 1 µM |
| B1 (LLGL2 13-978) | PRKCI/PARD6B 1-596, activation loop phosphorylated | fluorescence polarisation |  | together with: AMP-PNP |  | Kd | 0.0097 µM |
| KLLMIIHDRREFAKFEKEKMNAKWDTGENPLYKSAVTTVVNPKYEGK (ITGB1 752-798 I782L (Homo sapiens, UniProt P05556-1); sequence looked up) | Tln1 309-405 (Mus musculus, UniProt P26039) | NMR titration |  |  |  | Kd | 556 µM |
| B2 | GOT2 mitochondrial targeting sequence, fluorescein label on cysteine (Gallus gallus) | fluorescence polarization |  |  |  | Kd | 26.9 ± 2.64 µM |
| ARTKQTARKS (histone H3 1-10; K4me3) | ING2 189-262 Y208A (Arabidopsis thaliana, UniProt B3H615) | ITC | peptide |  |  | Kd | 59.4 ± 5.6 µM |
| ARTKQTARKS (histone H3 2-11 (UniProt P68431); K4me3; sequence looked up) | ING2 199-261 (Homo sapiens, UniProt Q9H160) | ITC | peptide |  |  | Kd | 4.1 µM and 6.5 µM |
| methyl-β-cyclodextrin | SLC6A9 (Homo sapiens, UniProt P48067) | transport activity, [3H]glycine uptake |  | 3.5 mg/mL, 1 min, together with: glycine 600 µM | higher = more transport | glycine uptake rate | 64.5 a.u. and 63.2 a.u. and 61.6 a.u. and 61.9 a.u. |
| BzATP | P2X purinoceptor 7 (P2rx7, Rattus norvegicus, UniProt Q64663, I214A/R125A) | ion current, agonist, two-electrode voltage clamp | Xenopus laevis oocytes | 1.23 µM | reference: highest concentration response | normalized current | 0 |
| 11-deoxycorticosterone |  | stopped-flow global kinetic fitting |  | 4-state closed model (best), 40-fold adrenodoxin excess, together with: substrate binding k-3 |  | rate constant | 242 ± 0.468 min⁻¹ |
| B3 | MAP1LC3B fragment (Homo sapiens) | BLI |  |  |  | Kd | 5.14 µM and 5.13 µM and 4.22 µM and 6.07 µM |
| colistin | Pseudomonas aeruginosa | broth microdilution | clinical isolate RKI-No_497/15 |  |  | MIC | 1 µg/mL |
| B4 (CFH 1108-1231 S1191L/V1197A) | C3 C3dg 955-1303 (Homo sapiens, UniProt P01024) | SPR |  |  |  | Kd | 1.9 ± 0.2 µM |
| B5 (PUX4) | CDC48A 1-463 (Arabidopsis thaliana, UniProt P54609) | BLI |  | 25 °C |  | Kd | 0.56 ± 0.02 µM |
| Peginesatide | UT7/EPO | tyrosine phosphorylation, LC-MS/MS phosphoproteomics, GluC, measured: GAB1 tyrosine 317 |  | 10 nM, 15 min, together with: 10 U/mL EPO | reference: vehicle | phosphorylation level | 14.2 fold |

Some of these lines once more:
| Molecule | target or system | assay | test system | setting | how to read | quantity | value |
| --- | --- | --- | --- | --- | --- | --- | --- |
| ACVLMLRRCRILGWCCSG (MP5.6; two disulfides) | chymotrypsin alpha (Bos taurus, UniProt P00766) | flow cytometry | peptide |  |  | Kd | 0.0015 µM |
| SCN2A fragment R1917A (Homo sapiens) (sequence not shown) | CALM1 (Homo sapiens, UniProt P0DP23) | fluorescence titration |  | pH 7.4, 22 °C, together with: calcium |  | Kd | 0.0819 µM |
